Measurements gathered from unrelated publications.
Lines come from different studies, so protocols differ. Numbers after ± are the reported error.
Sequence of UniProt Q8NER1 (whole entry, looked up): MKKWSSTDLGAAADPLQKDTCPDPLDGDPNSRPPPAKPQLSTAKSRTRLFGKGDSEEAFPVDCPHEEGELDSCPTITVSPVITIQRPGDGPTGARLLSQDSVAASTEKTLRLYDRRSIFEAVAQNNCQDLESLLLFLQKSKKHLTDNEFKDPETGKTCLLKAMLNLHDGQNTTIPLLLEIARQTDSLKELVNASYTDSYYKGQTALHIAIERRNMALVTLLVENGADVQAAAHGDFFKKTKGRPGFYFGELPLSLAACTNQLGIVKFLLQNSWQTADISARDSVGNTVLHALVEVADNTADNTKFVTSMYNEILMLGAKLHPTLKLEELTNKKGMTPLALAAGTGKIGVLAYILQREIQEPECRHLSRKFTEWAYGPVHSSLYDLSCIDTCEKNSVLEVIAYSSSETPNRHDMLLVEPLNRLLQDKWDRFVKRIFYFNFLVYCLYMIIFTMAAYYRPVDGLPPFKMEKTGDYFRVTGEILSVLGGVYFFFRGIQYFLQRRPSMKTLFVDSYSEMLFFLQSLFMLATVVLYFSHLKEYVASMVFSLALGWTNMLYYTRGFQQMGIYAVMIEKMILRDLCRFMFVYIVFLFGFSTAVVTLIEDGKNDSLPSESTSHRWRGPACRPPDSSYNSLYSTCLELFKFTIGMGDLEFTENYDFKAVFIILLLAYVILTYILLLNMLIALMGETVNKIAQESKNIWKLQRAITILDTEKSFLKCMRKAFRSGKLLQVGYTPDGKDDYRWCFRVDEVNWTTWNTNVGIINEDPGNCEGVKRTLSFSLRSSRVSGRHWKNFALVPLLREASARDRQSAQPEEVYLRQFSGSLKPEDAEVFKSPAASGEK
Sequence of UniProt Q15349 (whole entry, looked up): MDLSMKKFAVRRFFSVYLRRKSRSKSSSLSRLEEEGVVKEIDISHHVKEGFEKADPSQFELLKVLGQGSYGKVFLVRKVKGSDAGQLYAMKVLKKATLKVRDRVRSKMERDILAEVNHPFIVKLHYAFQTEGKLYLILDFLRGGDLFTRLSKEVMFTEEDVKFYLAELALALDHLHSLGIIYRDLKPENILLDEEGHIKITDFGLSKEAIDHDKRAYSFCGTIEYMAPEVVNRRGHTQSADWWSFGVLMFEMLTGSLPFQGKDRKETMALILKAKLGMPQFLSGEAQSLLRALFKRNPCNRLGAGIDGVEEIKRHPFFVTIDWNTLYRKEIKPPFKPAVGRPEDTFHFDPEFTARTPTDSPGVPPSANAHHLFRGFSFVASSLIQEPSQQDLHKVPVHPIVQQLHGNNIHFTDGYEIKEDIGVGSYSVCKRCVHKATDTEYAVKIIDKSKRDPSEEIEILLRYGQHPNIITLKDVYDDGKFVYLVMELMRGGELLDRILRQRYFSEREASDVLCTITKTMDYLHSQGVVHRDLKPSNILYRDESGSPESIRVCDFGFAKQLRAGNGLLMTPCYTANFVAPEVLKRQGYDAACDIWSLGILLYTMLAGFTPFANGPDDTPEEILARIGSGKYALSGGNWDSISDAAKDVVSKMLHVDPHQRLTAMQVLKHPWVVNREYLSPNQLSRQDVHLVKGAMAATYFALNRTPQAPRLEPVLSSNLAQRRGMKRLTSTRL
Sequence of UniProt P49589 (whole entry, looked up): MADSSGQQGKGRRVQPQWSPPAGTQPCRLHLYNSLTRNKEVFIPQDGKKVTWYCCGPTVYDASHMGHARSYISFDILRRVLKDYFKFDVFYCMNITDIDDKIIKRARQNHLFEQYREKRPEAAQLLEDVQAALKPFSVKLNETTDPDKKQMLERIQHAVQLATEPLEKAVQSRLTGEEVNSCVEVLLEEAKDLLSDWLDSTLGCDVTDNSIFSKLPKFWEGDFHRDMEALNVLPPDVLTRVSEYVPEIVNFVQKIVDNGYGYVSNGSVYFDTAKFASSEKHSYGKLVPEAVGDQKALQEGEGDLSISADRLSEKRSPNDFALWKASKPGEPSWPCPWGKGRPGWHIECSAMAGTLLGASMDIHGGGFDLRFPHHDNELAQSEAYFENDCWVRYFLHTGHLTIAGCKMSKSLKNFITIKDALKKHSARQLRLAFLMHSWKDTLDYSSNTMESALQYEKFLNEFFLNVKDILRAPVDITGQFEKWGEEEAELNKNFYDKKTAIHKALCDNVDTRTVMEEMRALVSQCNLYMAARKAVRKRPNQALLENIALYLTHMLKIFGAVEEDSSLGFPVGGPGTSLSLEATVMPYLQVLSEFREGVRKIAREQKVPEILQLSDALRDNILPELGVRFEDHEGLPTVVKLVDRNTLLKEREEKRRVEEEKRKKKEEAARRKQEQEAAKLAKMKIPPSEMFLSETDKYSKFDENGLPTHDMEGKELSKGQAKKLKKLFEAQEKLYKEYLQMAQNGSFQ

Compound = Cc1cc(-c2ccccc2)nc2sc(C(=O)Nc3nccs3)c(N)c12; target or system = MDA-MB-231; test = MTT; setting = 100 µM, 72 h; measurement = viability; value = 18 ± 3%
Compound = CN(C(=O)n1cnc(-c2ccc[n+]([O-])c2)c1)C1CCCCC1; target or system = COS cells expressing human FAAH; system = COS cell culture supernatant; setting = 100 nM, 3 h; measurement = concentration; value = 101 ± 1.2 nM
Compound = C[C@H]1CN(c2n[nH]c3nc(N[C@H]4CC[C@H](NS(=O)(=O)CCC(F)(F)F)CC4)ncc23)CCO1; target or system = Cysteine--tRNA ligase, cytoplasmic (Homo sapiens, UniProt P49589); test = Kinobeads competition, item: CARS; setting = 0.032 µM, unit not given; how to read = reference: vehicle; measurement = remaining binding; value = 0.96
Compound = CO[C@H]1C[C@@H]2CC[C@@H](C)[C@@](O)(O2)C(=O)C(=O)N2CCCC[C@H]2C(=O)O[C@H]([C@H](C)C[C@@H]2CC[C@@H](OC(=O)NCCOCCOCCOCCOCCOCCOCCOCCOCCC(=O)N3CCc4cc(Cn5nc(-c6ccc7oc(N)nc7c6)c6c(N)ncnc65)ccc4C3)[C@H](OC)C2)C[C@@H](O)[C@H](C)/C=C(\C)[C@@H](O)[C@@H](OC)C(=O)[C@H](C)C[C@H](C)/C=C/C=C/C=C/1C; system = patients with advanced solid tumours; setting = intravenous, 10 mg weekly, grade 3 or higher; measurement = dysgeusia incidence; value = 0%
Compound = Oc1ccc(C2(c3ccc(O)cc3)c3ccccc3-c3ccccc32)cc1; target or system = HepG2 spheroids, dissociated; test = annexin V-FITC/PI flow cytometry; setting = 0.01 µM, 96 h; measurement = early apoptotic cells; value = 5.25 ± 2.36%
Compound = COc1cc(CNC(=O)CSc2nc(C)cc(-c3ccccc3)c2C#N)cc(OC)c1OC; target or system = MDA-MB-231; test = MTT; setting = 100 µM, 72 h; measurement = viability; value = 78 ± 10%
Compound = COc1cc2c(Oc3ccc4[nH]c(C)cc4c3F)ccnc2cc1OCC1(N)CC1; system = paediatric recurrent refractory sarcoma; setting = 10 mg; measurement = grade 3 Leukopenia; value = 0%
Compound = Cc1cc(C)c(C#N)c(SC=CC(=O)Nc2ccon2)n1; target or system = MDA-MB-231; test = MTT; setting = 100 µM, 72 h; measurement = viability; value = 66 ± 4%
Compound = CC(C)CC(=O)OC[C@H]1O[C@@](C#N)(c2ccc3c(N)ncnn23)[C@H](O)[C@@H]1O; target or system = Caco-2; setting = 90 µM, 2 h, with: verapamil 100 µM; measurement = efflux ratio; value = 1.71
Compound = COc1ccc(N2C(=O)N(c3c(C)cccc3Cl)Cc3cnc(Nc4ccc(C5CCN(C)CC5)cc4OC)nc32)nc1; target or system = Ribosomal protein S6 kinase alpha-2 (RPS6KA2, Homo sapiens, UniProt Q15349); test = kinase activity, inhibitor; setting = 0.5 µM, RSK3; measurement = inhibition; value = 10%
Compound = O=C(Nc1cnccc1Cl)N1CCN(Cc2ccc3c(c2)OC(F)(F)O3)CC1; target or system = COS cells expressing human FAAH; system = COS cell culture supernatant; setting = 100 nM, 0 h; measurement = concentration; value = 84.4 ± 7.1 nM
Compound = O=c1ccc2ccccc2o1; target or system = NHEK; test = Seahorse; system = keratinocyte growth medium; setting = concentration not given, 1 h; measurement = oxygen consumption rate, chance of response; value = 60.6%
Compound = CC(c1ccccc1)(c1ccc(O)cc1)c1ccc(O)cc1; target or system = HepG2 spheroids; test = annexin V-FITC/PI flow cytometry; setting = 0.10 µM, 96 h; measurement = late apoptotic cells; value = 36.3 ± 27.6%
Compound = COc1cc(Nc2ncc(F)c(Nc3ccc4c(n3)NC(=O)C(C)(C)O4)n2)cc(OC)c1OC; target or system = Transient receptor potential cation channel subfamily V member 1 (TRPV1, Homo sapiens, UniProt Q8NER1); measurement = IC50; value = > 10 µM
Compound = O=C(Nc1cccnn1)N1CCC(=Cc2cccc(Oc3ccc(C(F)(F)F)cn3)c2)CC1; target or system = COS cells expressing human FAAH; system = COS cell culture supernatant; setting = 100 nM, 24 h; measurement = concentration; value = 49.4 ± 2.9 nM

For quick reference, copied from above:
Compound = Cc1cc(-c2ccccc2)nc2sc(C(=O)Nc3nccs3)c(N)c12; target or system = MDA-MB-231; test = MTT; setting = 100 µM, 72 h; measurement = viability; value = 18 ± 3%
